Measured values from different studies.
Each numbered part is a random draw from the data of one study; scales do not carry over between parts.
UniProt Q52WX2, sequence (whole entry, looked up): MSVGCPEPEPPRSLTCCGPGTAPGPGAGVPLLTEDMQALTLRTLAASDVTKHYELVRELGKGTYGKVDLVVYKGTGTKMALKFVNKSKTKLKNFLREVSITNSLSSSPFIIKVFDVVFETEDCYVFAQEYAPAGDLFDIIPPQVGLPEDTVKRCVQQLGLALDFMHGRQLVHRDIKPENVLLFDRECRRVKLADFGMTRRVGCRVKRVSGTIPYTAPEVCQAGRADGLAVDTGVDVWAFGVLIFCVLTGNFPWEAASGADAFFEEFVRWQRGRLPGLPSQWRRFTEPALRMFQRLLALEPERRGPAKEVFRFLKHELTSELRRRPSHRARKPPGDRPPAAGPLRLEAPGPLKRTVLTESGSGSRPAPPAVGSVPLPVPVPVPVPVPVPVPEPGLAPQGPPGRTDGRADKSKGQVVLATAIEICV
UniProt Q9UBE8, sequence (whole entry, looked up): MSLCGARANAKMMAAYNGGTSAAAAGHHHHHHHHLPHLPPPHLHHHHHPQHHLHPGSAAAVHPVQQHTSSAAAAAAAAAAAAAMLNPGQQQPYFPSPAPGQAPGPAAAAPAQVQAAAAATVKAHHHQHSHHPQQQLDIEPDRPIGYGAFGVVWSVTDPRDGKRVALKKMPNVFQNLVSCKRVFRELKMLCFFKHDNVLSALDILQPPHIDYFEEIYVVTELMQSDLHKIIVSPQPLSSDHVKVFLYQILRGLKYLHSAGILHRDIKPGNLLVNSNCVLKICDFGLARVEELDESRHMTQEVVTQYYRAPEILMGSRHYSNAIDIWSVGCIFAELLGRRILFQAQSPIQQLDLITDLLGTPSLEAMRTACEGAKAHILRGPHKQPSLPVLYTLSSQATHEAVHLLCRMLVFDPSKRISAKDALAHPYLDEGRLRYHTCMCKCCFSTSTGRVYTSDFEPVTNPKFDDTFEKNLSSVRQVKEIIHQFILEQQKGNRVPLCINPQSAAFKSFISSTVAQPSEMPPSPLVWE

Sample 1
Target: PABPC1L2, full length, GST fusion (mouse, UniProt A0ABA7IW68)
Method: RNAcompete
Form: RNA
Medium: in vitro
Tested at: 20 nM
Notes: 7-mer, probes averaged, single round
Baseline: mean of 7-mers
Direction: higher = stronger binding
Construct (chain): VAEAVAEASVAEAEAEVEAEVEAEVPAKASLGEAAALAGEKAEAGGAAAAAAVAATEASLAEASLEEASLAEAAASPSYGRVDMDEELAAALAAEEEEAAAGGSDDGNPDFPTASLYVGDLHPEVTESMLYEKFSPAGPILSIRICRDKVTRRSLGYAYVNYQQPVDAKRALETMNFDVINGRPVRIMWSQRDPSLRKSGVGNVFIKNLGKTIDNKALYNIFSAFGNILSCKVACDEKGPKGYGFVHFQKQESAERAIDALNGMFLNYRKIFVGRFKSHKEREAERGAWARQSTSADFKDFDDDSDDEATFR
| Sequence | 7-mer Z-score |
| --- | --- |
| GCAAGCU | -0.264 |
| CUUGGGA | 0.282 |
| CGUUAGC | -0.364 |
| AUACCAU | -0.079 |
| AAUGAUC | -0.00108 |
| CGGAAGA | 0.164 |
| UGCCCGA | -0.251 |
| GGGGGUA | 0.327 |

Sample 2
Target: Phosphate system positive regulatory protein PHO4, full length, GST-tagged (PHO4, Saccharomyces cerevisiae, UniProt P07270, residues 1-312)
Method: competition protein-binding microarray
Form: double-stranded DNA, one strand shown
Medium: in vitro
Tested at: 2 µM
Notes: whole 60-bp probe, lowest competitor level
Added: Cbf1 competitor, 0.05 µM
Direction: higher = stronger binding
Shared flanks, not repeated: … GTCTTGATTCGCTTGACGCTGCTG
Target sequence (chain): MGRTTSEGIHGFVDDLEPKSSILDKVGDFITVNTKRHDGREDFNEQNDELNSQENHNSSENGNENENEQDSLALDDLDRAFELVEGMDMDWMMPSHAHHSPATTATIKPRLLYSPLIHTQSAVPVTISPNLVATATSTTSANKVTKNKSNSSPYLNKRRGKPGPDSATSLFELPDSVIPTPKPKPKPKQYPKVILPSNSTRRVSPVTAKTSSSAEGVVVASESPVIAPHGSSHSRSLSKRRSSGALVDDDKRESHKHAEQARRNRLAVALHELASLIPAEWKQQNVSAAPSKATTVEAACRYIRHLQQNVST
| Sequence | fluorescence intensity |
| --- | --- |
| GGTTGTTTAACAATAAACGTGTAGAGTACAGGTAGA | 10800 a.u. |
| AAATTACTAAGTTGTCACCGTACTTACCCCGTATGA | 4050 a.u. |
| GAAGTTACCATTACCTGCATGACAAACAATGGCGTT | 5300 a.u. |
| GGAAGAAATGTCCATCACGTGATGGAGAACCAATGA | 12900 a.u. |
| CTGGCGTCATAATTTCACGTGTTTTAATAGCCATCC | 14100 a.u. |
| CCGCTAAGCCCGAGAGCCGTGCGATCTATGTTTCTT | 4830 a.u. |
| GCCAAAATGCACTGTCACACGCTAAAGTGCTCGAAT | 5350 a.u. |
| CTTTCCCGATCTTGAGCAGTGGGTGTAGCACATTTG | 4880 a.u. |

Further values, each from its own experiment
| Structure (SMILES) | tested on | read-out | method | medium | tested at | measurement | value |
| --- | --- | --- | --- | --- | --- | --- | --- |
| Cc1nc(Cc2cccc(C(F)(F)F)c2)sc1-c1ccc(C(N)=O)nc1 | Serine/threonine-protein kinase SBK1 (SBK1, Homo sapiens, UniProt Q52WX2) | cell-free assay | competition with immobilised ligand |  | 1 µM | remaining binding | 100% |
| CCC[C@@H]1NC(=O)CSC[C@@H](C(=O)OCC)N(C)C(=O)[C@H](CC(C)C)NC(=O)[C@H](C)N(C)C(=O)[C@H](CC(C)C)NC(=O)[C@H](C)N(C)C(=O)[C@@H]2CCCN2C(=O)[C@H](CC(C)C)NC(=O)CN(CCC)C1=O |  |  |  | hydrocarbon/water |  | logD | 1.18 |
| COc1ccc2cc(OCC3(C(=O)O)CN(C(=O)c4ccc(F)cc4)C3)ccc2c1 | Serine/threonine-protein kinase NLK (NLK, Homo sapiens, UniProt Q9UBE8) | cell-free assay | competition with immobilised ligand |  | 1 µM | remaining binding | 94% |

For quick reference, copied from above (sample 2):
| Sequence | fluorescence intensity |
| --- | --- |
| GGTTGTTTAACAATAAACGTGTAGAGTACAGGTAGA | 10800 a.u. |
| AAATTACTAAGTTGTCACCGTACTTACCCCGTATGA | 4050 a.u. |
| GAAGTTACCATTACCTGCATGACAAACAATGGCGTT | 5300 a.u. |
